Experimental data from different studies.
“And” joins repeats or separate records; there may be more than shown. Numbers after ± are the reported error.

Structure (SMILES)	test	test system	conditions	scale	measurement	result
CNC(=O)c1ccc(-c2cnc3ncc(Cc4ccc5ncccc5c4)n3n2)cc1F	–	Japanese patients	oral, 400 mg, grade 3/4	–	Platelet count decreased dose reduction/interruption	2%
N#Cc1ccc2c(c1)[C@H]1CCCN(C(=O)c3ccc4[nH]cnc4c3)[C@H]1C2	–	human	240 mg, day 15	–	maximum ACTH level	18.7 pmol/L
Cc1ccc([C@@H]2O[C@H](CO)[C@@H](O)[C@H](O)[C@H]2O)cc1Cc1ccc(-c2ccc(F)cc2)s1	–	Japanese type 2 diabetes patients	25 mg, day 1, 24 h urine collection	relative to: baseline	urinary sodium excretion change	29.7 mEq
OC[C@H]1OC(O)[C@H](O)[C@@H](O)[C@@H]1O (some centres unmarked)	–	aqueous solution	2 mM, with: glucosamine	–	osmolality	0 mOsmol/kg
CC(=O)OC[C@H]1OC(OC(C)=O)[C@@H](NC(=O)CN=[N+]=[N-])[C@@H](OC(C)=O)[C@@H]1OC(C)=O (some centres unmarked)	–	C57BL/6 mouse, bone marrow	dose not given, 2 days	relative to: PBS	erythroid precursor cells	no effect
CC1(CNC(=O)c2ccc(-c3ccccc3)cc2)NC(=O)NC1=O (centres unmarked)	–	octanol/buffer	pH 11	–	logP	0.55
O=c1ccc2ccc(O)cc2o1	–	cryopreserved human hepatocytes	1 µM	–	scaled intrinsic clearance	202 mL/min/kg
Cc1c(-c2ccc(N3CCc4cccc(C(=O)Nc5nc6ccccc6s5)c4C3)nc2C(=O)O)cnn1CC12CC3(C)CC(C)(C1)CC(OCCNCC[C@H](O)CO)(C3)C2	–	anaesthetized male beagle dog	iv infusion, 0.3 mg/kg/min, 105 min	–	plasma concentration	0 ng/mL and 1.44 ng/mL
NS(=O)(=O)c1cc(C(=O)O)c(NCc2ccco2)cc1Cl	measured: oral herpes	healthy men	8 days, treatment-emergent, crossover trial	–	subjects with adverse event	0%
C=CC(=O)N(C)CCOc1c(N)ncnc1-c1cc(F)cc(NC(=O)c2ccc(C3CC3)cc2F)c1C	–	human, whole blood	intravenous, 100 µg, drug interaction study	–	additional systemic clearance	658 mL/min
Cn1cc([C@H]2C[C@H]3CSC(N)=N[C@@]3(c3ccc(F)cc3F)CO2)cn1	–	male 129/SVE mouse, CSF	subcutaneous, 50 mg/kg, 6 h	–	CSF concentration	673 nM
CNS(=O)(=O)Cc1ccc2[nH]cc(CCN(C)C)c2c1	–	octanol/buffer	pH 11, known kinase inactives set	–	logP	0.88 and 0.94
O=C(O)CCC(=O)O.[2H]C([2H])([2H])Oc1cc(C)c2[nH]ccc2c1CN1CC[C@@H](C2CC2)C[C@H]1c1ccc(C(=O)O)cc1	multiple ascending dose	healthy Chinese subjects	50 mg twice daily	–	subjects with elevated ALT TEAE	0%
C[C@@H]1CCO[C@H]2Cn3cc(C(=O)NCc4ccc(F)cc4F)c(=O)c(O)c3C(=O)N12	–	Tat+ transgenic mouse, plasma	subcutaneous osmotic pump, dose not given, 5 d	–	drug concentration	486 ± 60.9 ng/mL
CC(C)N(CCCCOCC(=O)NS(C)(=O)=O)c1cnc(-c2ccccc2)c(-c2ccccc2)n1	measured: Haematoma	healthy male human	oral, 200 µg	–	adverse event incidence	4.5%
O=C(Nc1nc2cccc(-c3ccc(CN4CCS(=O)(=O)CC4)cc3)n2n1)C1CC1	measured: cardiac disorders	human rheumatoid arthritis patients	oral, 30 mg once daily, 4 weeks, regardless of relatedness	–	treatment-emergent adverse events	5.9%
Cc1ccc(Sc2ccccc2N2CCNCC2)c(C)c1	–	healthy adult men	oral, 5 mg single dose, treatment-emergent adverse events	–	diarrhoea incidence	0%
CO[C@H]1CC[C@H](N2C(=O)CNc3ncc(-c4ccc(C(C)(C)O)nc4)nc32)CC1	–	patients, plasma	oral, 30 mg, day -1, median	–	Tmax	1.55 h
CCOc1c([C@H](C)n2nc(C)c3c(N)ncnc32)cc(Cl)c(F)c1[C@@H]1CNC(=O)C1	–	patients, monotherapy	oral, 15 mg once daily, cycle 1 day 1	–	Cmax geometric mean	766 nM
CCn1cc(C(=O)N2CCOCC2)c(=O)c2cc(NC3Cc4ccccc4C3)cnc21	–	human, fasted, plasma	oral, 900 mg single dose, tablet, arithmetic mean	–	half-life	4.38 h

Repeated from above:
Structure (SMILES)	test	test system	conditions	scale	measurement	result
NS(=O)(=O)c1cc(C(=O)O)c(NCc2ccco2)cc1Cl	measured: oral herpes	healthy men	8 days, treatment-emergent, crossover trial	–	subjects with adverse event	0%
C=CC(=O)N(C)CCOc1c(N)ncnc1-c1cc(F)cc(NC(=O)c2ccc(C3CC3)cc2F)c1C	–	human, whole blood	intravenous, 100 µg, drug interaction study	–	additional systemic clearance	658 mL/min
